Measurements from different studies.
Each line is one published result; not all experiments were run side by side. Values joined by “and” are separate records of one study, mostly repeats; a detail may differ. Numbers after ± are the reported error.
UniProt Q16853, sequence (whole entry, looked up): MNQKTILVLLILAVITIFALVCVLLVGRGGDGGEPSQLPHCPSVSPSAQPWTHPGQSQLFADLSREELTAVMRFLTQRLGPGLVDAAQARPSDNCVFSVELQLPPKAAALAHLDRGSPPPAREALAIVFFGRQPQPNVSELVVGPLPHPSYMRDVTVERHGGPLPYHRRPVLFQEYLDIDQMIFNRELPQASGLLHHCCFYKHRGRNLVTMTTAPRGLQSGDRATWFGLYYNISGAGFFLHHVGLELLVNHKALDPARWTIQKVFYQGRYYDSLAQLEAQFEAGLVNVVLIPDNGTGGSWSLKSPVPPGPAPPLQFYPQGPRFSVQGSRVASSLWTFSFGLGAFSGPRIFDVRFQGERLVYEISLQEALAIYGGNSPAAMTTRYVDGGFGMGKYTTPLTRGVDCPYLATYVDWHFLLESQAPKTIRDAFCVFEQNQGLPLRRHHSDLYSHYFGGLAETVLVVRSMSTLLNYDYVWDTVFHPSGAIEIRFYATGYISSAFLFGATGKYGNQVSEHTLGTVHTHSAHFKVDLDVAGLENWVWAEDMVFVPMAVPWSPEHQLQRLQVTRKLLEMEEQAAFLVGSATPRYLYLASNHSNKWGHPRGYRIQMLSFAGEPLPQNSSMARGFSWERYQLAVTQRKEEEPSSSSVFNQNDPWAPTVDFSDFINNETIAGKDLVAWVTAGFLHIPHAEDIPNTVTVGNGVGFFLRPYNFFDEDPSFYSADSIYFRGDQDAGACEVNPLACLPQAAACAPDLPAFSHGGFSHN

With `CCn1c(=O)c2c(nc(/C=C/c3ccc(OC)c(OC)c3)n2C)n(CC)c1=O` the Papp was 31.2 ×10⁻⁶ cm/s (MDCK; 1 µM, 90 min, pH 6.5 apical, 7.4 basolateral, apical to basolateral).
For `Cc1cc(Nc2ccc(S(F)(F)(F)(F)F)cc2)n2nc(C(C)(F)F)nc2n1`, “patients with QTcB increase” read 0% (Plasmodium vivax; 12-lead ECG; malaria patients; oral, 800 mg, increase above 60 ms).
`CC[C@H](CO)N(CCN(N=O)[C@H](CC)CO)N=O`: “revertant colonies per plate” 147 ± 30 (Escherichia coli; mutagenicity, Ames plate incorporation; WP2 uvrA pKM101; 1500 µg/plate, without S9, methanol).
`NCc1cc2c(cc1F)C(=O)N(C1CCC(=O)NC1=O)C2` (centres unmarked) gave a concentration of 6930 ng/mL and 7510 ng/mL (Amine oxidase [copper-containing] 3 (AOC3, Homo sapiens, UniProt Q16853); substrate, LC-MS/MS; cirrhotic human liver lysate; 62.50 µM, 60 min, pH 7.4).
The QRS duration of `CCN1/C(=C/C(C)=O)Sc2ccc(F)cc21` is reported as 35 ± 2 ms (cynomolgus monkey; oral, 10 mg/kg, 1 h post-dose).
`Cc1cc(C(=O)NC(C)(C)COc2cccc3c2C(N)=NS(=O)(=O)N3)cc(C)n1` gave a cytotoxicity of -1% (human peripheral blood lymphocytes; CBPI, preliminary test; 2000 µg/mL, 24 h; baseline: vehicle control).
`Cc1cnc(Nc2ccc(OCCN3CCCC3)cc2)nc1Nc1cccc(S(=O)(=O)NC(C)(C)C)c1` gave a mass recovery of 95 ± 8% (MDCK; 1 µM, 90 min, pH 6.5 apical, 7.4 basolateral, apical to basolateral).
`CCOc1c([C@H](C)n2nc(C)c3c(N)ncnc32)cc(Cl)c(F)c1[C@@H]1CNC(=O)C1` — result for “patients with high heart rate”: 14.5% (refers to: QRS > 110 ms; previously treated B-cell malignancy; oral, dose not given, all doses).

A few entries again:
`CCOc1c([C@H](C)n2nc(C)c3c(N)ncnc32)cc(Cl)c(F)c1[C@@H]1CNC(=O)C1` — result for “patients with high heart rate”: 14.5% (refers to: QRS > 110 ms; previously treated B-cell malignancy; oral, dose not given, all doses).
